{"data": "Assay results of several laboratories", "note": "A part holds a random share of what one study measured. “And” joins repeats or separate records; there may be more than shown.", "UniProt Q96PY6, sequence (whole entry, looked up)": "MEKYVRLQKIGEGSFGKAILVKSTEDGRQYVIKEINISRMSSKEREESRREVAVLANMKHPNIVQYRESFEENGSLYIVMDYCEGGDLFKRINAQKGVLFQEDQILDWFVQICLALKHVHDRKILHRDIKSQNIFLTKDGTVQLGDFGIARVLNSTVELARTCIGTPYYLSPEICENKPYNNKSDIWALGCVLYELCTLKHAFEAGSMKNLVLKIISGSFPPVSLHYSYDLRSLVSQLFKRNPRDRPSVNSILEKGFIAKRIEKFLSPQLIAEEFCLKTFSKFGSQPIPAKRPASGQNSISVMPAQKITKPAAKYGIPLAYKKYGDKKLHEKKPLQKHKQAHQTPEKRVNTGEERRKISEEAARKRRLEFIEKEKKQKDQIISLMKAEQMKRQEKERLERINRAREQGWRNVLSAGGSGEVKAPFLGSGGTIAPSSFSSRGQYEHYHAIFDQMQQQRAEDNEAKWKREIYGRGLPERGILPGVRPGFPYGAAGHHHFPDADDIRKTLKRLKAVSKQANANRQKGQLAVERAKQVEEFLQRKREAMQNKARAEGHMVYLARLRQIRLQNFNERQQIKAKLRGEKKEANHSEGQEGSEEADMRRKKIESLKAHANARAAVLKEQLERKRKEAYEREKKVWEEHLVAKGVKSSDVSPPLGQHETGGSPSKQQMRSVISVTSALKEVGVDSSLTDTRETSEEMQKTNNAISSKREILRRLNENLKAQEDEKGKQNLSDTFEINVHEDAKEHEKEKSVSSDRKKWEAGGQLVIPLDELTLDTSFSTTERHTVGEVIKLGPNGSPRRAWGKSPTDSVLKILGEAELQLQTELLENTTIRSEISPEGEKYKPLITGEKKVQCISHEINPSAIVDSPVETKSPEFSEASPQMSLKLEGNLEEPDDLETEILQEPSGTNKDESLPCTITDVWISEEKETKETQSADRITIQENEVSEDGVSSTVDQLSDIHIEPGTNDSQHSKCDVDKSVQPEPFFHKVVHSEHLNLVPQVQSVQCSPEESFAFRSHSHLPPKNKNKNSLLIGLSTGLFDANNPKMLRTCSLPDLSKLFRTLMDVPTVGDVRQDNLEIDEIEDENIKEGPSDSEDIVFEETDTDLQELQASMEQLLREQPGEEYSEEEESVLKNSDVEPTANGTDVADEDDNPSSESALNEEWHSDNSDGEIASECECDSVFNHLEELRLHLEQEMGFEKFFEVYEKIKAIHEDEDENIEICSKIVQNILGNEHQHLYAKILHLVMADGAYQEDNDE", "UniProt P27361, sequence (whole entry, looked up)": "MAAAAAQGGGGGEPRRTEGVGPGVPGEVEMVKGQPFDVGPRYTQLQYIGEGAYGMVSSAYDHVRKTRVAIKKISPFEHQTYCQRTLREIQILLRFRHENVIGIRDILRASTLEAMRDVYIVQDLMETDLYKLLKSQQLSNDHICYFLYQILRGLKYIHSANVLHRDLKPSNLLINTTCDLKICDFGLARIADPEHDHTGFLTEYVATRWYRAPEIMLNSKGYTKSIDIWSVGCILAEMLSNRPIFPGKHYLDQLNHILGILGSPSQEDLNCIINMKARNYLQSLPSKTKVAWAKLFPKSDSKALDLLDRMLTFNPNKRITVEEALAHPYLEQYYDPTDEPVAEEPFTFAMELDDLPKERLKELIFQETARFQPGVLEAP", "UniProt Q99683, sequence (whole entry, looked up)": "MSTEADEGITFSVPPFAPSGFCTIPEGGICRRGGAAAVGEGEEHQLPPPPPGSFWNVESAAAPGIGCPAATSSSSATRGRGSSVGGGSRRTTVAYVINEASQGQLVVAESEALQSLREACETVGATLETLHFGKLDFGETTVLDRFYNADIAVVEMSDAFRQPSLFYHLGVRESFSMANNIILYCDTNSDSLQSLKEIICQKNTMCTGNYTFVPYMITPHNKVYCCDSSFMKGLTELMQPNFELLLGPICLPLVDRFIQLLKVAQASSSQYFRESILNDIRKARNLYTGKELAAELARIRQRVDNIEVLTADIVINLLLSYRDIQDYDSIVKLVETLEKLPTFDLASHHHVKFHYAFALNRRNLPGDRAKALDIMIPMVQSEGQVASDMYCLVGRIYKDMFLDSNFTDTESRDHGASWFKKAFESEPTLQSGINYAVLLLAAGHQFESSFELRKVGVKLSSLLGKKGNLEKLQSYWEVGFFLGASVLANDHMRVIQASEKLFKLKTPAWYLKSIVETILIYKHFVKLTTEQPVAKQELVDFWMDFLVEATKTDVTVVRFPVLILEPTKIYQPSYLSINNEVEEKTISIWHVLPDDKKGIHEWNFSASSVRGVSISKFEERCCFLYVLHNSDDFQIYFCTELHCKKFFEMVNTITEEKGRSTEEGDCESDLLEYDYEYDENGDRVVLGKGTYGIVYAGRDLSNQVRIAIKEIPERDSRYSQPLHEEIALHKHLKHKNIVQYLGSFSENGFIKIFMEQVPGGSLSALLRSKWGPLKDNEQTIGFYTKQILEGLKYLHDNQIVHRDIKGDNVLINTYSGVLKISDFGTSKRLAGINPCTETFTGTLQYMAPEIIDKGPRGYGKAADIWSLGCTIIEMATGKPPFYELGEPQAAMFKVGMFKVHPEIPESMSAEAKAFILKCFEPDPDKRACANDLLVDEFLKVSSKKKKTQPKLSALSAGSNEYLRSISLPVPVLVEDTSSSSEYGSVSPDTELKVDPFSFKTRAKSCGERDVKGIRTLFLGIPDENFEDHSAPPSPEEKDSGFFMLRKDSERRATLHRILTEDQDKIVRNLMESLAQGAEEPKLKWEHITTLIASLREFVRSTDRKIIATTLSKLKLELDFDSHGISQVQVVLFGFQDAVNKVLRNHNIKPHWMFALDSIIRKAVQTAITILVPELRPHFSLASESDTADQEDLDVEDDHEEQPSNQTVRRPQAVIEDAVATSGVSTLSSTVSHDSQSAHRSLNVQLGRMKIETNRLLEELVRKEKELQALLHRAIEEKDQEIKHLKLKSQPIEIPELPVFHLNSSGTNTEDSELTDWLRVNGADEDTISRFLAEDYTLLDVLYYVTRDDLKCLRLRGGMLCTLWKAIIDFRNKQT", "UniProt Q04912, sequence (whole entry, looked up)": "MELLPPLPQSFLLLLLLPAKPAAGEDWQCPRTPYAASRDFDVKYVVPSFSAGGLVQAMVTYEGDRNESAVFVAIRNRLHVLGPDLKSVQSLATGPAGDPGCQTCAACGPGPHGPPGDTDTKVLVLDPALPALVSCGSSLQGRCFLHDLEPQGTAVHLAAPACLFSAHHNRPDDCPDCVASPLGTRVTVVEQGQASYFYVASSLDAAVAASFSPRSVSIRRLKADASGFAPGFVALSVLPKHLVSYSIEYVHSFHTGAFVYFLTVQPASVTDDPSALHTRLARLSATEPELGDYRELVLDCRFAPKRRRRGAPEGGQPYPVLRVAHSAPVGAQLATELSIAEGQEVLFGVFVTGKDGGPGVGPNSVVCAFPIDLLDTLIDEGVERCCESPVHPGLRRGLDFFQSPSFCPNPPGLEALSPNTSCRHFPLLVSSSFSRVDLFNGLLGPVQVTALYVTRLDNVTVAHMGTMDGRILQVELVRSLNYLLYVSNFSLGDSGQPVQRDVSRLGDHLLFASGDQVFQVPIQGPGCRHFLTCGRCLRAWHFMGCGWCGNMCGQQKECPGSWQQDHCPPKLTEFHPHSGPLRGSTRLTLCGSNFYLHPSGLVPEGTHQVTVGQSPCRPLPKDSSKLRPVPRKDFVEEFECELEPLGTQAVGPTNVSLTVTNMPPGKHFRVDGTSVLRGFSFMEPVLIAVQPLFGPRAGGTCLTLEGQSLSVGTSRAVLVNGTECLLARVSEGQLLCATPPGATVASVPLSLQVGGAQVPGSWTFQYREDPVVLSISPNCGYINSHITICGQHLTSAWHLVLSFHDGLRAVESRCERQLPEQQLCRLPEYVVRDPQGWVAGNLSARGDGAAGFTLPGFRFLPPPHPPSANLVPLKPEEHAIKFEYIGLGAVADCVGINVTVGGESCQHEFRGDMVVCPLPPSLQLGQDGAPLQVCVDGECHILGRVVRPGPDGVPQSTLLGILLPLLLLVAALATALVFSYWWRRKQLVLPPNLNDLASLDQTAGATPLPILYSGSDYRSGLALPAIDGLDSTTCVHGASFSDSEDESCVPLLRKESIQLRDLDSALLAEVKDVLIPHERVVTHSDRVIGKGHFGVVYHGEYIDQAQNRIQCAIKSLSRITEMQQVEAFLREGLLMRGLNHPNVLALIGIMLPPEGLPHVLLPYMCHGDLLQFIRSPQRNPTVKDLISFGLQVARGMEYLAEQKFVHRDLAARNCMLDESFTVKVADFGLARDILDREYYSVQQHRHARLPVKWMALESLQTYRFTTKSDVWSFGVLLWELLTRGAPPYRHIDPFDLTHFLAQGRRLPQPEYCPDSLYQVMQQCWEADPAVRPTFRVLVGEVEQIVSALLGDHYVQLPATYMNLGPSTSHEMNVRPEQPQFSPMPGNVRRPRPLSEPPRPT"}
{"data": "Set 1", "Compound": "CC(C)C[C@@H]1NC(=O)[C@@H](N(C)C(=O)[C@H](CC2CCC2)NC(=O)[C@@H]2C[C@@H](F)CN2C(=O)C2(C(F)(F)F)CC(F)(F)C2)CCCCNC(=O)C2(CC2)NC(=O)[C@H](Cc2cc(Cl)ccc2Cl)N(C)C1=O"}
{"cell line": "NCI-H446 sgCtrl", "assay": "dose-response", "setting": "20 nM, 6 d", "scale": "reference: DMSO-treated", "cell count": "0.0431 and 0.0717 and 0.0845"}
{"cell line": "HCC4006", "assay": "Vi-Cell counting", "setting": "200 nM, 6 days", "scale": "reference: DMSO", "cell count": "0.516 and 0.594 and 0.45"}
{"cell line": "NCI-H1299", "assay": "Vi-Cell counting", "setting": "60 nM, 6 days", "scale": "reference: DMSO", "cell count": "1.01 and 0.789 and 0.965"}
{"cell line": "A549", "assay": "Vi-Cell counting", "setting": "200 nM, 6 days", "scale": "reference: DMSO", "cell count": "0.823 and 0.707 and 0.85"}
{"data": "Set 2", "Structure (SMILES)": "O=c1cc(N2CCOCC2)oc2c1ccc1ccccc12", "read-out": "enzyme activity", "action": "inhibitor", "tested at": "0.5 µM", "reference": "control"}
{"target": "Serine/threonine-protein kinase TAO2 (TAOK2, Homo sapiens, UniProt Q9UL54)", "remaining activity [%]": 108}
{"target": "Casein kinase I isoform gamma-2 (CSNK1G2, Homo sapiens, UniProt P78368)", "remaining activity [%]": 102}
{"target": "Activin receptor type-1B (ACVR1B, Homo sapiens, UniProt P36896)", "remaining activity [%]": 103}
{"target": "Tyrosine-protein kinase FRK (FRK, Homo sapiens, UniProt P42685)", "remaining activity [%]": 98.8}
{"target": "Mitogen-activated protein kinase kinase kinase 5 (MAP3K5, Homo sapiens, UniProt Q99683)", "remaining activity [%]": 98.2}
{"target": "Serine/threonine-protein kinase TBK1 (TBK1, Homo sapiens, UniProt Q9UHD2)", "remaining activity [%]": 102}
{"target": "MAP kinase-activated protein kinase 2 (MAPKAPK2, Homo sapiens, UniProt P49137)", "remaining activity [%]": 98.3}
{"target": "Macrophage-stimulating protein receptor (MST1R, Homo sapiens, UniProt Q04912)", "remaining activity [%]": 103}
{"target": "Rhodopsin kinase GRK7 (GRK7, Homo sapiens, UniProt Q8WTQ7)", "remaining activity [%]": 107}
{"target": "Tyrosine-protein kinase Lck (LCK, Homo sapiens, UniProt P06239)", "remaining activity [%]": 99.2}
{"target": "Mitogen-activated protein kinase 3 (MAPK3, Homo sapiens, UniProt P27361)", "remaining activity [%]": 106}
{"target": "Tyrosine-protein kinase JAK3 (JAK3, Homo sapiens, UniProt P52333)", "remaining activity [%]": 103}
{"target": "Fibroblast growth factor receptor 1 (FGFR1, Homo sapiens, UniProt P11362)", "remaining activity [%]": 92.1}
{"target": "Serine/threonine-protein kinase Nek1 (NEK1, Homo sapiens, UniProt Q96PY6)", "remaining activity [%]": 106}
{"data": "Set 3", "target": "Calcium/calmodulin-dependent protein kinase type II subunit alpha (CAMK2A, Homo sapiens, UniProt Q9UQM7)", "read-out": "enzyme activity", "action": "inhibitor", "tested at": "10 µM", "UniProt Q9UQM7, sequence (whole entry, looked up)": "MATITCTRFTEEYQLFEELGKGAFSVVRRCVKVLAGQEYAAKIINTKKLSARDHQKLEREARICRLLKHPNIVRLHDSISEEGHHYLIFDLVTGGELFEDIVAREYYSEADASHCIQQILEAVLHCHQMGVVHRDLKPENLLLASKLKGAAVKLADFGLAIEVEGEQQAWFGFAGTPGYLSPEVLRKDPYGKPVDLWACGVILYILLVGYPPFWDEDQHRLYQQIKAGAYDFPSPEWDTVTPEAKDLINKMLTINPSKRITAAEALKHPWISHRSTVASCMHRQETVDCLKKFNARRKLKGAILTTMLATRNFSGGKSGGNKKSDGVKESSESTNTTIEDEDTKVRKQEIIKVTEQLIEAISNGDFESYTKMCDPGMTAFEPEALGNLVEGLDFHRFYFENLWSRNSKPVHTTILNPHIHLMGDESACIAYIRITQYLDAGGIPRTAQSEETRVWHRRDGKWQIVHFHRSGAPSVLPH"}
{"Structure (SMILES)": "O=c1cc(-c2ccccc2)oc2cc(O[C@@H]3O[C@H](CO)[C@@H](O)[C@H](O)[C@H]3O)c(O)c(O)c12", "inhibition": "-18%"}
{"Structure (SMILES)": "COc1cc(C(=O)O)cc(OC)c1O", "inhibition": "-57%"}
{"Structure (SMILES)": "CN1[C@@H]2CC[C@H]1CC(OC(c1ccccc1)c1ccccc1)C2 (stereo partly shown)", "inhibition": "5%"}
{"Structure (SMILES)": "Nc1nc(O)c2ncn(CCC(CO)CO)c2n1", "inhibition": "-10%"}
{"Structure (SMILES)": "CC(=O)N[C@@H](CCC(=O)O)C(=O)O", "inhibition": "7%"}
{"Structure (SMILES)": "CC(C)CCC[C@@H](C)[C@H]1CC[C@H]2[C@@H]3CC=C4C[C@@H](OS(=O)(=O)O)CC[C@]4(C)[C@H]3CC[C@]12C", "inhibition": "-28%"}
{"data": "Set 4", "cell line": "normal-adjacent organoid sample G", "technique": "CellTiter-Glo", "tested at": "1 µM", "setting": "replicate mean", "reference": "DMSO"}
{"SMILES": "O=C(NC[C@@H]1[C@H]2CN(C(=O)OCc3cc(C(F)(F)F)cc(C(F)(F)F)c3)C[C@@H]12)c1ccc2[nH]nnc2c1", "viability [%]": 101}
{"SMILES": "CCCCN(CCCC)C(=O)CN1C[C@@H](c2cc(OC)c3c(c2)OCO3)[C@H](C(=O)O)[C@H]1CC(C)(C)CCC", "viability [%]": 110}
{"SMILES": "Cc1c(NC(=O)c2cc(C(N)=O)nc3cc(F)ccc23)c(C(F)(F)F)nn1Cc1ccc(C#N)cc1", "viability [%]": 19}
{"SMILES": "CN(c1ccnc(CNc2nc(Nc3ccc4c(c3)CC(=O)N4)ncc2C(F)(F)F)n1)S(C)(=O)=O", "viability [%]": 114}
{"SMILES": "O=C(NCc1ncc(C(F)(F)F)cc1Cl)c1ccc2c(c1)C1(CCS(=O)(=O)CC1)[C@@H](C1CC1)N2S(=O)(=O)c1ccc(F)cc1", "viability [%]": 95.2}
{"SMILES": "CC1=C(C#N)C(c2ccc3c(c2)c(NC(=O)c2ccccc2C)nn3C)C(C#N)=C(C)N1", "viability [%]": 94.1}
{"SMILES": "CN(C)c1ncnc(-c2ccc3nc(Nc4cc(CN5CCN(C(=O)CC(F)(F)F)CC5)ccn4)[nH]c3c2)c1Cl", "viability [%]": 101}
